{"data": "Measured values gathered from unrelated publications", "note": "Parts stem from different laboratories: compare values within a part only."}
{"data": "Study 1", "target": "Sal-like protein 4, full length isoform B (SALL4, Homo sapiens, UniProt Q9UJQ4-2, residues 1-616)", "method": "universal PBM", "form": "double-stranded DNA, one strand shown", "matrix": "in vitro", "concentration": "not given", "setting": "8-mer, flanks averaged, mean of replicates", "reading": "higher = stronger binding"}
{"Sequence": "AGTACCCA", "E-score": 0.0222}
{"Sequence": "CAAATGGC", "E-score": -0.0347}
{"Sequence": "CGAGCACA", "E-score": -0.00567}
{"Sequence": "AGCGTCAA", "E-score": -0.0131}
{"data": "Study 2", "target": "PABPC1L2, full length, GST fusion (mouse, UniProt A0ABA7IW68)", "method": "RNAcompete", "form": "RNA", "matrix": "in vitro", "concentration": "20 nM", "setting": "7-mer, probes averaged, single round", "reference": "mean of 7-mers", "reading": "higher = stronger binding", "Target sequence (chain)": "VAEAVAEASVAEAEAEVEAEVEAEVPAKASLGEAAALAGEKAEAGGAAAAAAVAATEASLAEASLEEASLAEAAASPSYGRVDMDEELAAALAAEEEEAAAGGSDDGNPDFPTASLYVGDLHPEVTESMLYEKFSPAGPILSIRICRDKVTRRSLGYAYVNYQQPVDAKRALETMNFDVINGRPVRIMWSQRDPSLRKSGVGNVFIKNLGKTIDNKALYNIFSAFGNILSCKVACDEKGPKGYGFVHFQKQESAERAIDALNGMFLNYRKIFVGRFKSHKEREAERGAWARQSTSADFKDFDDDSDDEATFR"}
{"Sequence": "UCACACU", "7-mer Z-score": -0.153}
{"Sequence": "CGCCGUU", "7-mer Z-score": -0.427}
{"Sequence": "CGUUUCA", "7-mer Z-score": -0.443}
{"Sequence": "CCCCUUU", "7-mer Z-score": -0.302}
{"Sequence": "CUACGCA", "7-mer Z-score": -0.119}
{"data": "Study 3", "target": "TAR DNA-binding protein 43, full length, His tag (TARDBP, Homo sapiens, UniProt Q13148, residues 1-414)", "method": "RNA Bind-n-Seq", "form": "RNA", "matrix": "in vitro", "concentration": "20 nM", "setting": "6-mer, flanks averaged, single round", "together with": "150 mM KCl", "reference": "input library", "reading": "higher = stronger binding"}
{"Sequence": "UGAUCG", "6-mer enrichment (R)": 0.783}
{"Sequence": "GUGGGU", "6-mer enrichment (R)": 3.91}
{"Sequence": "AGGGGG", "6-mer enrichment (R)": 8.56}
{"Sequence": "AUCGGC", "6-mer enrichment (R)": 0.78}
{"data": "Further values, each from its own experiment"}
{"Substance": "PhoQ, residues 284 288 289 292 302 303 SVHLDV", "target": "PhoP, residues 12 14 15 18 19 LWHVM (Escherichia coli, UniProt P23836)", "assay": "Sort-seq, refers to: YFP reporter", "system": "E. coli", "setting": "PhoQ-PhoP variant library, together with: 10 µM Mg2+", "how to read": "reference: high Mg2+ state, higher = stronger signaling", "quantity": "fold induction", "value": 8.37}
{"note": "A few entries again (study 2):"}
{"Sequence": "UCACACU", "7-mer Z-score": -0.153}
{"Sequence": "CGCCGUU", "7-mer Z-score": -0.427}
